Assay results from different studies.
± marks the error that the study gave.
Chain of UniProt P10721 (whole entry, unmodified, looked up): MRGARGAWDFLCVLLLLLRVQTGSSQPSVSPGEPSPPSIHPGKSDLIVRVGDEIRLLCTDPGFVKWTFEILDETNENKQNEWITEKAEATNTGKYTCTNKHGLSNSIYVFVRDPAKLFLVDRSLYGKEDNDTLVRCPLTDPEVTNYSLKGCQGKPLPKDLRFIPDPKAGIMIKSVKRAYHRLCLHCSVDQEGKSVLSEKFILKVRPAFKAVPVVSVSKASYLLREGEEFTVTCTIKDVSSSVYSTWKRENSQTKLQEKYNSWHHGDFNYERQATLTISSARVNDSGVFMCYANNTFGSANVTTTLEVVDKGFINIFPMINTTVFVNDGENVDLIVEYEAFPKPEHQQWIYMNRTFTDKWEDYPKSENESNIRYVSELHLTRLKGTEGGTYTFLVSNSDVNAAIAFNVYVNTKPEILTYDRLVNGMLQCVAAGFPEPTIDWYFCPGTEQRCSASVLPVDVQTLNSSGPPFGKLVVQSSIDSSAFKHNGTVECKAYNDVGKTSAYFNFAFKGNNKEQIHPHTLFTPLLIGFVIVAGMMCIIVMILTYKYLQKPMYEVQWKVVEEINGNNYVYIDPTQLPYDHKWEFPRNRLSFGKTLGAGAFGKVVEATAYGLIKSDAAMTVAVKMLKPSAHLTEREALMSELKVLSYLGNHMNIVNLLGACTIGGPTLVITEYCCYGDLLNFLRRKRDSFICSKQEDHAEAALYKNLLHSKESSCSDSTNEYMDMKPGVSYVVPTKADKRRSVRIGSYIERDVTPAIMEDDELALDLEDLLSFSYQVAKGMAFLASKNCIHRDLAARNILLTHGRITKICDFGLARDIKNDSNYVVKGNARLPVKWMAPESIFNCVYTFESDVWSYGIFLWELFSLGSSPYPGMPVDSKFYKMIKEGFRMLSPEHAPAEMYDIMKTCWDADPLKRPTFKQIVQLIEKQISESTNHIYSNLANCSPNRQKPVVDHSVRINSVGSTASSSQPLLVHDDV
Chain of UniProt Q9HBH9 (whole entry, looked up): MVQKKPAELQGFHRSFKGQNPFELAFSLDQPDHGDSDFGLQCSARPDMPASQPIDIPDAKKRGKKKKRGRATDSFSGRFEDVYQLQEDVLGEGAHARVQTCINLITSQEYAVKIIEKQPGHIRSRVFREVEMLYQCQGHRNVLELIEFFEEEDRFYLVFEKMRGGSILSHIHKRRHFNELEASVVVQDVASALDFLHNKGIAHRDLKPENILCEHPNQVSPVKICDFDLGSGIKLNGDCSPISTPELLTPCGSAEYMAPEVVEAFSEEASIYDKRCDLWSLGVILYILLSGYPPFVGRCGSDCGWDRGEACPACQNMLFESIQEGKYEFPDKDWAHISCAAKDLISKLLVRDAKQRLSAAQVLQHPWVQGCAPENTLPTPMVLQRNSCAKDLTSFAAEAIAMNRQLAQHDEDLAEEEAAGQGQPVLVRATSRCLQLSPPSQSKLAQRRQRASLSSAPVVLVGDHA
Chain of UniProt P30530 (whole entry, looked up): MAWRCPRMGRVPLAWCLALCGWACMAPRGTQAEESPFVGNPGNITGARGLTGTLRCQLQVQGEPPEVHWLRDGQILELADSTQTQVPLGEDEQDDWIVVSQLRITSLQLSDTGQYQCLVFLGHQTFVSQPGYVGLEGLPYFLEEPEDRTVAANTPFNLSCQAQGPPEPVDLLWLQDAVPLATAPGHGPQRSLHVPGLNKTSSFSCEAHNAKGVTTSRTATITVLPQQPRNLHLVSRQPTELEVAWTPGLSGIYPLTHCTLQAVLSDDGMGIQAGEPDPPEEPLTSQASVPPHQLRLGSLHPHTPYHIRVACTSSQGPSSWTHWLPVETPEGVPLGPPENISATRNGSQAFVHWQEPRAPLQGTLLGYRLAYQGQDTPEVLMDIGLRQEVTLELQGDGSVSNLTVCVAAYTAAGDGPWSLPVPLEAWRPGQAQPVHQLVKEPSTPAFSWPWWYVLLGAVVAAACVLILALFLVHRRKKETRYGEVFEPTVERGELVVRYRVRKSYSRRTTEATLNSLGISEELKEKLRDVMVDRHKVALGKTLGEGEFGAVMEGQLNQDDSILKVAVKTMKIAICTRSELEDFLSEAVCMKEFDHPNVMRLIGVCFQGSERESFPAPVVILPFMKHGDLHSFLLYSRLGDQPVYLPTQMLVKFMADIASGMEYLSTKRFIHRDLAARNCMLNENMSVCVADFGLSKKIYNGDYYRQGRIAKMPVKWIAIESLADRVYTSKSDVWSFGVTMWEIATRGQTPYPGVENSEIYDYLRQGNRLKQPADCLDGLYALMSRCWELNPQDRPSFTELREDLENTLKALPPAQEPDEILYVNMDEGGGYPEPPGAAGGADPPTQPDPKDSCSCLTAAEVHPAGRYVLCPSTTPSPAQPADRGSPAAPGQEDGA
Chain of UniProt O75582 (whole entry, looked up): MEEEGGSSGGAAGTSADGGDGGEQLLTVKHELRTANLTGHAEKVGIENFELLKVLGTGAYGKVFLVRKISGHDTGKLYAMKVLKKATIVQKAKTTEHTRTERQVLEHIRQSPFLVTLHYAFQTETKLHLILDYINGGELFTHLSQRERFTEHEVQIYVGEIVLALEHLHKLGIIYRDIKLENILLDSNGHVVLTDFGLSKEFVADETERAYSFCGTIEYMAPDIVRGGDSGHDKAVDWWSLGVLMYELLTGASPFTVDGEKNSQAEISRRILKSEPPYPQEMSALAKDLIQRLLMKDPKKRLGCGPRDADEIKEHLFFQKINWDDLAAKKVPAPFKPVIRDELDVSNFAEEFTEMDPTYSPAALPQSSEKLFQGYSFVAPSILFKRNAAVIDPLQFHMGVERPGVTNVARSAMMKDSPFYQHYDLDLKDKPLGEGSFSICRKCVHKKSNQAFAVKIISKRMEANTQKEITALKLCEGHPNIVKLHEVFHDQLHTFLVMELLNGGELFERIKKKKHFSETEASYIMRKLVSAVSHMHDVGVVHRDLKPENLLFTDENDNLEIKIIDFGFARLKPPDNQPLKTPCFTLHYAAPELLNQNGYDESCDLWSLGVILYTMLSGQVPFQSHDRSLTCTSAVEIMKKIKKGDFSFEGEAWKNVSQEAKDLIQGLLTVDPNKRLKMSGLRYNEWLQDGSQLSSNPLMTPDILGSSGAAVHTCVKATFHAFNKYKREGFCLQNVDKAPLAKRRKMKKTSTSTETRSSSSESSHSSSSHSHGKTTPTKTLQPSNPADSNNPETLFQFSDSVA
Chain of UniProt P35408 (whole entry, looked up): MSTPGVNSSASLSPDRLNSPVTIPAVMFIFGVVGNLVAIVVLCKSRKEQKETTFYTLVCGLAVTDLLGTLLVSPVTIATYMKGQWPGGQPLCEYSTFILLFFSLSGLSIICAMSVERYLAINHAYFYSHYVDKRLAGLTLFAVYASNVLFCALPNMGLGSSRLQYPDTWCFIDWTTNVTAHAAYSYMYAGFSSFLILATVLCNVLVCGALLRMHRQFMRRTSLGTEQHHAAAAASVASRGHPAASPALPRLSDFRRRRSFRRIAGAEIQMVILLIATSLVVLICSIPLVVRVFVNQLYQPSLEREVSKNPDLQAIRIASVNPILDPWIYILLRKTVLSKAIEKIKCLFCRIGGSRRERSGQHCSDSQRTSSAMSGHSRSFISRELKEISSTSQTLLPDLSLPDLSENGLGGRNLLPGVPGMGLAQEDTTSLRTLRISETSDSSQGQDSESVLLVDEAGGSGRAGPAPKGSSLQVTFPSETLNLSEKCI
Chain of UniProt O00141 (whole entry, looked up): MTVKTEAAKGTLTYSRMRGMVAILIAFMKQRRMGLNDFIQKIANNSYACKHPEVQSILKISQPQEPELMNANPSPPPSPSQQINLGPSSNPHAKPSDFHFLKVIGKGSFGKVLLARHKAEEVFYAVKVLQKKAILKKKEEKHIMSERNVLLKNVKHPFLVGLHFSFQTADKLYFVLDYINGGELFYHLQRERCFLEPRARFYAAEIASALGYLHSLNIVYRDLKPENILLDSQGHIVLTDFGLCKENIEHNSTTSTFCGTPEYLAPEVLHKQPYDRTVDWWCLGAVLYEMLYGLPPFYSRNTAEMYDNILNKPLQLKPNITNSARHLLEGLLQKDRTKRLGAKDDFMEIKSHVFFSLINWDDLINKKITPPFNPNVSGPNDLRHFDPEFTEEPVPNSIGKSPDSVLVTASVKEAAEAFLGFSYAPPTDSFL

With `CC(C)(C)C(=O)OCOP(=O)(OCOC(=O)C(C)(C)C)C1CCCN(O)C1=O` (stereo not shown) the CC50 was greater than 100 µM (MOLT-4).
`O=C(O)c1ccccc1/C=N/Nc1nc(-c2ccccc2Cl)cs1` gave an inhibition of -11.9% (AXL (Homo sapiens, UniProt P30530); enzyme activity, inhibitor; 1 µM).
For `O=C1NC2(CC2)COc2ncc(F)cc2[C@H]2COCCN2c2ccn3ncc1c3n2`, “organ-to-brain weight ratio” read 6.71 ± 1.11% (Sprague-Dawley rat, female, ovaries; oral, 20 mg/kg/day, 4 weeks, end of treatment).
`N[C@H](C(=O)N1CCCC1)C1CCN(c2nccc3c(-c4ncc(Cl)cc4Cl)cccc23)CC1` has an inhibition of -3.4% (SGK1 (Homo sapiens, UniProt O00141); kinase activity, inhibitor; 10 µM, together with: ATP 1 mM).
The inhibition of `CC(C)[C@H]1NC(=O)C[C@H]2/C=C/CCSSC[C@@H](NC1=O)C(=O)N[C@H](Cc1cccc3ccccc13)C(=O)NCC(=O)O2` is reported as -1.5% (KIT (Homo sapiens, UniProt P10721, V654A); enzyme activity, inhibitor; 10 µM).
With `CN[C@@H]1[C@H](O)[C@H](NC)[C@H]2O[C@]3(O)[C@H](O[C@@H]2[C@H]1O)O[C@H](C)C[C@H]3NC(=O)Cc1ccc(Cl)cn1` the inhibition was -9% (PTGER4 (Homo sapiens, UniProt P35408); ligand displacement, radioligand; 10 µM).
`CN(C)[C@H]1C[C@@]23CC[C@@]4(O2)C(=CC[C@]2(C)[C@@H](c5ccc6ccncc6c5)CC[C@H]24)C=C3[C@@H](O)[C@@H]1O` has an inhibition of 4.9% (Ribosomal protein S6 kinase alpha-5, N-terminal kinase domain (RPS6KA5, Homo sapiens, UniProt O75582); ATP probe labelling, inhibitor, KiNativ profiling; 0.1 µM).
With `C[C@H](NCc1ccc(-c2ccc(C(F)(F)F)cc2)cc1)C(N)=O` the inhibition was 5% (KIT (Homo sapiens, UniProt P10721, T670I/V559D); cell-free assay, competition with immobilised ligand; 1 µM).
For `CS(C)(=O)=Nc1ccc(-c2ccc(-c3nc4cc(O[C@@H]5CO[C@H]6[C@@H]5OC[C@H]6O)[nH]c4cc3F)cc2)cc1`, the inhibition was 9% (MKNK2 (Homo sapiens, UniProt Q9HBH9); enzyme activity, inhibitor; 10 µM).
With `COc1ccc(F)cc1S(=O)(=O)Nc1cnc2c(c1)C(=O)NCCO2` the inhibition was 0% (AMPA glutamate receptor; radioligand binding; 10 µM).

Repeated from above:
The inhibition of `CC(C)[C@H]1NC(=O)C[C@H]2/C=C/CCSSC[C@@H](NC1=O)C(=O)N[C@H](Cc1cccc3ccccc13)C(=O)NCC(=O)O2` is reported as -1.5% (KIT (Homo sapiens, UniProt P10721, V654A); enzyme activity, inhibitor; 10 µM).
With `CN[C@@H]1[C@H](O)[C@H](NC)[C@H]2O[C@]3(O)[C@H](O[C@@H]2[C@H]1O)O[C@H](C)C[C@H]3NC(=O)Cc1ccc(Cl)cn1` the inhibition was -9% (PTGER4 (Homo sapiens, UniProt P35408); ligand displacement, radioligand; 10 µM).
